Literature values as cited in several papers.
Protocols differ between the studies behind these lines. Numbers after ± are the reported error.

With CS(=O)(=O)CCNCc1ccc(-c2ccc3ncnc(Nc4ccc(OCc5cccc(F)c5)c(Cl)c4)c3c2)o1 the AUC increase was roughly 56% (human, moderate hepatic impairment; oral, 100 mg; relative to: healthy controls).
With CO[C@H]1C[C@@H]2CC[C@@H](C)[C@@](O)(O2)C(=O)C(=O)N2CCCC[C@H]2C(=O)O[C@H]([C@H](C)C[C@@H]2CC[C@@H](OCCO)[C@H](OC)C2)CC(=O)[C@H](C)/C=C(\C)[C@@H](O)[C@@H](OC)C(=O)[C@H](C)C[C@H](C)/C=C/C=C/C=C/1C the AUC ratio was 15 fold (human; 2 mg single dose, added: ketoconazole 200 mg twice daily; relative to: with over without ketoconazole).
The AUC decrease of CC[C@@H]1CN(C(=O)NCC(F)(F)F)C[C@@H]1c1cnc2cnc3[nH]ccc3n12 is reported as 60% (human; dose not given, CYP3A induction, added: rifampin multiple doses; relative to: without rifampin).
Cc1nc(Nc2ncc(C(=O)Nc3c(C)cccc3Cl)s2)cc(N2CCN(CCO)CC2)n1 gave an AUC reduction of roughly 60% (humans; oral, 50 mg single dose, added: famotidine 40 mg evening, 10 h before; relative to: without famotidine).
CO[C@H]1C[C@@H]2CC[C@@H](C)[C@@](O)(O2)C(=O)C(=O)N2CCCC[C@H]2C(=O)O[C@H]([C@H](C)C[C@@H]2CC[C@@H](OC(=O)C(C)(CO)CO)[C@H](OC)C2)CC(=O)[C@H](C)/C=C(\C)[C@@H](O)[C@@H](OC)C(=O)[C@H](C)C[C@H](C)/C=C/C=C/C=C/1C gave an AUC of 3810 ng·h/mL (human; intravenous, 25 mg weekly).
`octreotide`: “AUC reduction by high-fat meal” roughly 90% (human; oral, 20 mg capsule; relative to: fasting).
With O=C(O)C[C@H](O)C[C@H](O)/C=C/c1c(C2CC2)nc2ccccc2c1-c1ccc(F)cc1 the AUC ratio was 1.4 fold (human; concentration not given; relative to: OATP*15 heterozygous over non-carriers).
C[C@@H](Oc1cc(-c2cnn(C3CCNCC3)c2)cnc1N)c1c(Cl)ccc(F)c1Cl gave an AUC increase of 220% (healthy human volunteers; single dose, added: ketoconazole co-administration; relative to: without ketoconazole).
For COc1cccc(CCc2ccccc2OCC(CN(C)C)OC(=O)CCC(=O)O)c1 (racemic), the AUC was 2210 ng·h/mL (human; oral, 400 mg single dose as hydrochloride, geometric mean).
CC(=O)O[C@H]1C(=O)[C@@]2(C)[C@H]([C@H](OC(=O)c3ccccc3)[C@]3(O)C[C@H](OC(=O)[C@H](O)[C@@H](NC(=O)c4ccccc4)c4ccccc4)C(C)=C1C3(C)C)[C@]1(OC(C)=O)CO[C@@H]1C[C@@H]2O has an AUC of 2.9 ± 0.7 µM·h (human, Kaposi sarcoma, HIV; 100 mg/m², no protease inhibitors).
For O=C(c1cc(Cc2n[nH]c(=O)c3ccccc23)ccc1F)N1CCN(C(=O)C2CC2)CC1, “AUC at steady state” read 55200 ng·h/mL (human; oral, 400 mg twice daily, multiple dose, pooled trials).

Some of these lines once more:
CC(=O)O[C@H]1C(=O)[C@@]2(C)[C@H]([C@H](OC(=O)c3ccccc3)[C@]3(O)C[C@H](OC(=O)[C@H](O)[C@@H](NC(=O)c4ccccc4)c4ccccc4)C(C)=C1C3(C)C)[C@]1(OC(C)=O)CO[C@@H]1C[C@@H]2O has an AUC of 2.9 ± 0.7 µM·h (human, Kaposi sarcoma, HIV; 100 mg/m², no protease inhibitors).
